Assay results of several laboratories.
Protocols differ between the studies behind these lines. ± marks the error that the study gave.
Organism: Plasmodium falciparum

For CN1CCC(NCc2cccc(-c3ccc(S(=O)(=O)NCc4ccccc4)cc3)c2)CC1, the IC50 was 253 nM (parasite growth, inhibitor, SYBR Green I; Cam3.1 R539T (MRA-1240)).
With COC1=CC(c2ccc[nH]2)=N/C1=C\c1[nH]c(Cc2ccc(OC(F)(F)F)cc2)cc1Cc1ccc(OC(F)(F)F)cc1 the IC50 was 27 nM (parasite growth; Dd2; 72 h, synchronized rings).
With CN(C)CCCN1c2ccccc2Sc2ccccc21 the IC50 was 10000 nM (HB3).
With CC1(C)N=C(N)N=C(N)N1c1ccc(Cl)cc1 the IC50 was 1260 ± 620 nM (growth, [3H]-hypoxanthine uptake; FCR3; 96 h).
For O[C@@H](c1cc(C(F)(F)F)nc2c(C(F)(F)F)cccc12)[C@H]1CCCCN1, the IC50 was 10.5 nM (parasite growth, inhibitor, SYBR Green I; Cam3.1 R539T (MRA-1240)).
CCN(CC)CCCC(C)Nc1ccnc2cc(Cl)ccc12 (stereo not shown) gave an IC50 of 26 ± 1 nM (growth, [3H]-hypoxanthine uptake; Dd2; 96 h).
For NC(=Nc1ccccc1)NC(=O)c1nc(Cl)c(N)nc1N, the IC50 was 12600 nM (GB4).
For OC(CCCN1CCCCC1)(c1ccccc1)c1ccccc1, the IC50 was > 10000 nM (parasite proliferation, SYBR Green; 3D7; erythrocytic stage).
C[C@]12C=CC(=O)C=C1CC[C@@H]1C2=CC[C@]2(C)[C@@H](C(=O)CN3CCN(c4cc(N5CCCC5)nc(N5CCCC5)n4)CC3)CC[C@@H]12 has an IC50 of 794 nM (W2).
With CC(C)Cn1c(=O)n(C)c(=O)c2c(-c3cncn3C)n(Cc3cccc4ccccc34)nc21 the IC50 was 15700 nM (parasite growth, inhibitor, SYBR Green I; Cam3.1 R539T (MRA-1240)).

Repeated from above:
C[C@]12C=CC(=O)C=C1CC[C@@H]1C2=CC[C@]2(C)[C@@H](C(=O)CN3CCN(c4cc(N5CCCC5)nc(N5CCCC5)n4)CC3)CC[C@@H]12 has an IC50 of 794 nM (W2).
